Assay results from different studies.
Numbered parts are unrelated; each lists some results of a single study.

Study 1
Target: Interferon regulatory factor 5, full length, phosphomimetic (IRF5, Homo sapiens, UniProt Q13568-2, residues 1-514, K96S/S451D/S453D/S456D/S462D)
Technique: protein-binding microarray
Molecule type: double-stranded DNA, one strand shown
Medium: in vitro
Tested at: 250 nM
Setting: 60-bp whole probe
With: salmon DNA 0.4 mg/ml
Relative to: random background probes
Reading: higher = stronger binding
Constant ends, left off below: GCCTAGCAC … GTCTTGATTCGCTTGACGCTGCTG
Strand | log fluorescence [z-score]
TTAGGTTTCGGTCTCGGTTCGTGCTAG | 10.5
TTAGATCTCATTCTCGATTAGTGCTAG | 0.864
TACGATCTCAGACTGGAGACGTGCTAG | -0.232
GAAAATGCCCTTTTGGTGAGGTGCTAG | 1.23
TTAGATCTCAGCATCGATTAGTGCTAG | 0.385
TTTTTTTTCCTAATTGAACCGTGCTAG | 1.22
GACGGTATCGACTTCCGGGACGTGCTA | 2.47
TTAGGTTCCCTTTTCATTTAGTGCTAG | 1.01

Study 2
Target: Myc proto-oncogene protein, bHLH-zipper, MAX partner unstated (MYC, Homo sapiens, UniProt P01106, residues 368-449)
Sequence of UniProt P01106 (368-449, looked up): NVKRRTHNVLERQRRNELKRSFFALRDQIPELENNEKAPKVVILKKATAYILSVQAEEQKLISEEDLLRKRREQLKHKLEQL
Technique: protein-binding microarray
Molecule type: double-stranded DNA, one strand shown
Medium: in vitro
Tested at: not given
Setting: k-mer, scored over probes, only values ≥0.25
Reading: higher = stronger binding
Strand | E-score
GAACATGA | 0.258
AACGTGGC | 0.441
CCCATGCA | 0.368
CAACACGA | 0.266
AAGCCACG | 0.373
CCCGTGTC | 0.29
GACGTGCC | 0.275
GTGACCAC | 0.352
ACGGGGCG | 0.294
CCGCCCCG | 0.347

Study 3
Target: RNA binding protein fox-1 homolog 2, RRM domain, GST-SBP tag (RBFOX2, Homo sapiens, UniProt O43251-10, residues 100-194)
Technique: RNA Bind-n-Seq
Molecule type: RNA
Medium: in vitro
Tested at: 365 nM
Setting: natural RNA segment, single round, ends assumed
Relative to: no-protein control
Reading: higher = stronger binding
Construct (chain): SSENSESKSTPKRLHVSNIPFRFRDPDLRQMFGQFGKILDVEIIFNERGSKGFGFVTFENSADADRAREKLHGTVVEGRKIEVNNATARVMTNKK
Strand | RBNS enrichment (R)
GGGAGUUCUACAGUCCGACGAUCACCUCAGAAUUCUCAGGUAUGGAAACACUCAAGAGCUGCCUGGUAUGAAGCAAAGAGGAUCCUGGGCUAUUUAAAGCUCUGGUAACCGAGAAGAACUUGCCCCUGUUCUUUGGAAUUCUCGGGUGCCAA | 3.89
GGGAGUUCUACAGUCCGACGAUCUGAAAAAUGUAUAUCACUCAAUUUUUAUCUAAGAAGGAUAGGUUAUAAAGGGAGGUACCUAAAUACUCAAAUAAUGUAUAUAUUCUUUUUCAUAACAUAUGGAAUGCUUUUGGAAUUCUCGGGUGCCAA | 0.755
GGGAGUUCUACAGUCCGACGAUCCCCCUCUACUGCUAUGUGGCUUCAACCAGCCUCACAGCCACACGGGGGAAGCAGAGAGUCAAGAAUGCAAAGAGGCCGCUUCCCUAAGAGGCUUGGAGGAGCUGGGCUCUUGGAAUUCUCGGGUGCCAA | 1.64
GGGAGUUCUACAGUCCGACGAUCGCCAGCAGAGCCCGGGGCUCACUCUCCUUUCAGUCAUUCCUCAGCCCUUCGAAGGGAAGCCCAAACACUUUGCACGCUGUGCUGCAGACAUUCUGGCCUGGUGUGUCUGAUGGAAUUCUCGGGUGCCAA | 0.706
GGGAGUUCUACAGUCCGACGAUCCUAGACUUUGAUUUCCUUAAUAGCCCAUUUCUGUUAACCUCUUAUCACUAAGAAAGAAAGGAAAGAAGGAGAUGAAUAGAAGAAAGAAAAUGGAAAGAAGGAAAAAAGGAUGGAAUUCUCGGGUGCCAA | 0.356
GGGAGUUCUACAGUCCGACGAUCCUACACAUGGUUGCUAUUUAUUUCUACAUGAAGCUUAUUCUCACUUGGAGGUUCUGAAGAUUCUGUUAUAGAGCAAGAAAUGGCUUAAUUUUUUUUUUUAAUUGGAAUUUUGGAAUUCUCGGGUGCCAA | 1.26
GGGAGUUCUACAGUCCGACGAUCUUAUAUUUGUUCGGGUGCCACCUUCCACCAGCUUACCACUACGGUAGAACUGUCAAAUUCAUCUCCCUGAAUUUGUCUUAAAGGGGUGUCCAUGCACAGGCCCAAGAGUCUGGAAUUCUCGGGUGCCAA | 0.303
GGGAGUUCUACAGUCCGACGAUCCCUGAGGCCAGAAGAUUCCCUAACCCAGGACUUUGAAGCCAACCUAGGCAACAUGAUGGGGACCCUCCCCAUUCUUCAUAAAAAUCCCCUCAAGAUCCUCAAGUUGAAUGUGGAAUUCUCGGGUGCCAA | 0.292

Further values, each from its own experiment
Molecule | target | assay | system | setting | scale | endpoint | result
PhoQ, residues 284 288 289 292 302 303 QWQEDG | PhoP, residues 12 14 15 18 19 AQALL (Escherichia coli, UniProt P23836) | Sort-seq, item: YFP reporter | E. coli | PhoQ-PhoP variant library, with: 10 µM Mg2+ | relative to: high Mg2+ state, higher = stronger signaling | fold induction | 0.832
